Measured values from different studies.
Compare with care: the assays were run in different laboratories.

SMILES | test | test system | setting | half-life [min]
Clc1ncccn1 | – | – | pH 7.4 | 26300
N=C(N)NCCC[C@@H]1NC(=O)[C@H](CCCNC(=N)N)NC(=O)[C@@H](C(c2ccccc2)c2ccccc2)NC(=O)[C@H](Cc2c[nH]c3ccccc23)NC(=O)[C@@H](C(c2ccccc2)c2ccccc2)NC(=O)[C@@H](CCCNC(=N)N)NC(=O)[C@@H](CCCNC(=N)N)NC1=O | LC-MS | human plasma | – | ≥ 360
CN(C)c1cccc2c(S(=O)(=O)NCCCCNC(=O)c3ccc(NNC(=O)OCc4ccc(O[Si](C)(C)C(C)(C)C)cc4)cc3)cccc12 | – | PBS | 37 °C, with: 2-formylphenylboronic acid | > 6000
O=C(O)c1ccc(OP(=O)(O)O)c(CN2CCC(=C3c4ccc(Cl)cc4CCc4cccnc43)CC2)c1 | – | HBSS | 10 µM, 2 h incubation, pH 6.5 | > 120
CC(C)C[C@H](NC(=O)[C@H](Cc1ccc(O)cc1)NC(=O)[C@H](CC(N)=O)NC(=O)[C@H](CO)NC(=O)[C@H](CCCNC(=N)N)NC(=O)[C@H](Cc1ccc(O)cc1)NC(=O)CNC(=O)[C@H](CCCNC(=N)N)NC(=O)[C@H](Cc1c[nH]cn1)NC(=O)[C@H](CO)NC(=O)[C@H](Cc1c[nH]cn1)NC(=O)[C@H](Cc1c[nH]cn1)NC(=O)[C@H](CCCCN)NC(=O)[C@H](CCC(=O)O)NC(=O)[C@H](Cc1c[nH]cn1)NC(=O)[C@H](Cc1ccccc1)NC(=O)[C@H](CCCCN)NC(=O)[C@H](CCCNC(=N)N)NC(=O)[C@H](CCCCN)NC(=O)[C@H](Cc1ccc(O)cc1)NC(=O)CNC(=O)[C@H](Cc1c[nH]cn1)NC(=O)[C@H](Cc1c[nH]cn1)NC(=O)[C@H](CCCNC(=N)N)NC(=O)[C@H](CCCCN)NC(=O)[C@H](C)NC(=O)[C@H](Cc1c[nH]cn1)NC(=O)[C@H](CO)NC(=O)[C@@H](N)CC(=O)O)C(=O)N[C@@H](Cc1ccc(O)cc1)C(=O)N[C@@H](CC(=O)O)C(=O)N[C@@H](CC(N)=O)C(=O)O | – | human whole saliva | 40 µg/mL, median | 1.2
O=C(C(=O)c1ccccc1)C(=O)c1ccccc1 | chemical stability, HPLC-MS | BBS buffer with acetonitrile | pH 10.2 | < 1
N#Cc1cncs1 | – | – | pH 7.4 | 21000
Cc1c(Cc2cccc(OC(C)(C)C(=O)O)c2)c2ccc(C(=O)N[C@H](C)c3cccc(C(C)(C)C)c3)cc2n1C | – | human liver microsomes | – | 33.1
Cl.NCc1ccc2c(c1)CN(C1CCC(=O)NC1=O)C2=O (centres unmarked) | – | male Göttingen minipig, whole blood | – | 3.5
Cc1c(Cc2ccc(Cl)c(O[C@@H](C)C(=O)O)c2)c2ccc(C(=O)N[C@@H](C)c3ccc(C(C)(C)C)cc3)cc2n1C | – | human liver microsomes | 1 µM, with: microsomes 1 mg/mL | > 60
N=C(N)NCCC[C@@H]1NC(=O)[C@H](CO)NC(=O)[C@@H](NC(=O)[C@H](CO)NC(=O)[C@H](CO)NC(=O)[C@H](Cc2c[nH]c3ccccc23)NC(=O)CNC(=O)[C@H](CO)NC(=O)[C@@H](N)Cc2c[nH]c3ccccc23)CSSC[C@@H](C(=O)NCC(=O)O)NC(=O)[C@H](CO)NC1=O | – | patients, plasma | intravenous, 10 mg/kg, thrice weekly, geometric mean | 17.1
Cc1c(Cc2cccc(OC(C)(C)C(=O)O)c2)c2ccc(C(=O)N[C@@H](C)c3cc(C(C)(C)C)ccc3F)cc2n1CC(C)C | – | human liver microsomes | 1 µM, with: microsomes 1 mg/mL | 52
CN(Cc1cc(C2CC2)on1)C(=O)c1cccc(-c2ccc(F)cc2)c1 | – | human liver microsomes | 2 µM, pH 7.5, with: 1-aminobenzotriazole 500 µM preincubated | > 120
Cc1c(Cc2cc(Cl)cc(OC(C)C(=O)O)c2)c2ccc(C(=O)NC(C)c3ccc(C(C)(C)C)cc3)cc2n1C(C)C (centres unmarked) | – | human liver microsomes | – | 35.5
Cc1onc(-c2ccccc2)c1-c1ccc(S(=O)(=O)Cl)cc1 | reactivity with N-α-acetyl-lysine, HPLC-MS | – | pH 10.2 | 24
Cc1c(Cc2ccc(Cl)c(O[C@@H](C)C(=O)O)c2)c2ccc(C(=O)N[C@@H](C)c3ccc(C(C)(C)C)cc3)cc2n1CC1CCC1 | – | mouse liver microsomes | 1 µM, with: microsomes 1 mg/mL | > 60
O=c1c(-c2cnn(-c3ccccc3)c2)c(C(F)(F)F)oc2c(O)c(O)ccc12 | – | rat plasma | – | 231

Some of these lines once more:
SMILES | test | test system | setting | half-life [min]
O=C(O)c1ccc(OP(=O)(O)O)c(CN2CCC(=C3c4ccc(Cl)cc4CCc4cccnc43)CC2)c1 | – | HBSS | 10 µM, 2 h incubation, pH 6.5 | > 120
